Results pooled from the literature.
Every numbered part comes from another study and shows a few of its results, in no order.
UniProt O95835, sequence (whole entry, looked up): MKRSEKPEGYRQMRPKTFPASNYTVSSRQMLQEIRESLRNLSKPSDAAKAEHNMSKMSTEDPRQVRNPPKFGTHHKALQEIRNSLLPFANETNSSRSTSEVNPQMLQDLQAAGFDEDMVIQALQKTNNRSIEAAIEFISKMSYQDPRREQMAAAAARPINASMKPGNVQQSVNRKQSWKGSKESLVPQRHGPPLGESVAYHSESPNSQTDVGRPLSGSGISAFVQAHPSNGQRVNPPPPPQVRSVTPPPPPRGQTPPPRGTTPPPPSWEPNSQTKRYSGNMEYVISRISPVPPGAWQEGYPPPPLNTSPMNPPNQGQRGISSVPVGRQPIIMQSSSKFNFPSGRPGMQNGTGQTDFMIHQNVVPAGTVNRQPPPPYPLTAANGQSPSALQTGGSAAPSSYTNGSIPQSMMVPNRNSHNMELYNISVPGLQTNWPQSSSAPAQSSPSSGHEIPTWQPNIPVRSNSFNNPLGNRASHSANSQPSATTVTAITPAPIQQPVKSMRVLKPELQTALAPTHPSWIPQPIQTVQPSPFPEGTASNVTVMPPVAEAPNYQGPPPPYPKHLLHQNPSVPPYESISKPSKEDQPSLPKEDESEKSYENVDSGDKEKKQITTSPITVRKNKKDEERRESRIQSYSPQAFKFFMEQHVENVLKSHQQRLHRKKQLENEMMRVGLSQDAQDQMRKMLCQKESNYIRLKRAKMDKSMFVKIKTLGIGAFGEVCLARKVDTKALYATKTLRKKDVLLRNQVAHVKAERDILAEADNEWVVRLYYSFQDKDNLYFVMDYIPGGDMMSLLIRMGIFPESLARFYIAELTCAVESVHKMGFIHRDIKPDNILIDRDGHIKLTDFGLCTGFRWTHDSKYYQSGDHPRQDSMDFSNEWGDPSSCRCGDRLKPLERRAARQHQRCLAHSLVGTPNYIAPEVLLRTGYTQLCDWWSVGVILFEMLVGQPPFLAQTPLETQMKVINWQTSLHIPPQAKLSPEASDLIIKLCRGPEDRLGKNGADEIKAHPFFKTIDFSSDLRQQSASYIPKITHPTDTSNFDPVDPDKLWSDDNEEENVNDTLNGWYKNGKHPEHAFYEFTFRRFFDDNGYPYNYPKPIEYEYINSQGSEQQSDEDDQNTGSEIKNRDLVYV
UniProt P35968, sequence (whole entry, looked up): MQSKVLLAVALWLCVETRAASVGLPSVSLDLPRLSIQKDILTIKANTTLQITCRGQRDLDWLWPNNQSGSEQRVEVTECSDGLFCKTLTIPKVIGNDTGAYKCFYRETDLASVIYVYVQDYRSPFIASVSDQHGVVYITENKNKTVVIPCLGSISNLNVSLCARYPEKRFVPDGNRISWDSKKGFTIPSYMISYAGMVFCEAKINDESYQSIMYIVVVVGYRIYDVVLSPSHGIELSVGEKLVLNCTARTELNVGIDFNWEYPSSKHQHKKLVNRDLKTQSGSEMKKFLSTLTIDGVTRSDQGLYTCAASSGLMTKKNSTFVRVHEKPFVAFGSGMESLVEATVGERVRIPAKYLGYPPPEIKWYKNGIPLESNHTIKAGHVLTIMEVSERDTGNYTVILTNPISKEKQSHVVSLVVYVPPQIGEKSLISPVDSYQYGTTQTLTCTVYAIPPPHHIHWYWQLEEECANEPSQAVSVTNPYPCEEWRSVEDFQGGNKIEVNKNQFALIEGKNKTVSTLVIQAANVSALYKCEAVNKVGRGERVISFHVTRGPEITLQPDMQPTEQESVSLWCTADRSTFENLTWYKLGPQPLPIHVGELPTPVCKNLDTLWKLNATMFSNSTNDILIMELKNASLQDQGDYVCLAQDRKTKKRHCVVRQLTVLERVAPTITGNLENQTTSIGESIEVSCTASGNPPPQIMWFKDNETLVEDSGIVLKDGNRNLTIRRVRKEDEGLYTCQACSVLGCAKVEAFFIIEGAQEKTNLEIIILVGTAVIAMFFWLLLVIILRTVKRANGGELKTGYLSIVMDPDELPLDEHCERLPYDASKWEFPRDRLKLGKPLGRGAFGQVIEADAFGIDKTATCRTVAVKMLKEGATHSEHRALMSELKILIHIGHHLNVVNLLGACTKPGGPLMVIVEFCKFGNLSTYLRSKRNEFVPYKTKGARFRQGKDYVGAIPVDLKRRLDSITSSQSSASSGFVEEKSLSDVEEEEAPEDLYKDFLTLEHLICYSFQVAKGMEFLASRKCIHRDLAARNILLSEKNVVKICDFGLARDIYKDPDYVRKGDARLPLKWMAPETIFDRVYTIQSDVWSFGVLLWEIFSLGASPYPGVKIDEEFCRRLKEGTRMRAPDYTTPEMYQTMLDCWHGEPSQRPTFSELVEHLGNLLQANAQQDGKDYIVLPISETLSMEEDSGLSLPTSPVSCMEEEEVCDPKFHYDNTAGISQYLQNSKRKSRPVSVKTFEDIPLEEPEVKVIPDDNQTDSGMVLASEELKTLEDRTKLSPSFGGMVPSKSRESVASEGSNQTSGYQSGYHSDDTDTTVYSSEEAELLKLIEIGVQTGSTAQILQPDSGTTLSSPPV
UniProt P11802, sequence (whole entry, looked up): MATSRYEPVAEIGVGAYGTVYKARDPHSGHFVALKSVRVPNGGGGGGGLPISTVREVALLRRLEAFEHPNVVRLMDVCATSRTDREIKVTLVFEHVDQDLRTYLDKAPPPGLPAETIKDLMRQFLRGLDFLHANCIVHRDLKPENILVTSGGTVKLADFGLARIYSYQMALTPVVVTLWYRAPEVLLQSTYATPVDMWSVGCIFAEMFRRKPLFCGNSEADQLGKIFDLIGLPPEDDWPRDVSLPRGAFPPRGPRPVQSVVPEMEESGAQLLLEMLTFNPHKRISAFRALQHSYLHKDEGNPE
UniProt Q6P2M8, sequence (whole entry, looked up): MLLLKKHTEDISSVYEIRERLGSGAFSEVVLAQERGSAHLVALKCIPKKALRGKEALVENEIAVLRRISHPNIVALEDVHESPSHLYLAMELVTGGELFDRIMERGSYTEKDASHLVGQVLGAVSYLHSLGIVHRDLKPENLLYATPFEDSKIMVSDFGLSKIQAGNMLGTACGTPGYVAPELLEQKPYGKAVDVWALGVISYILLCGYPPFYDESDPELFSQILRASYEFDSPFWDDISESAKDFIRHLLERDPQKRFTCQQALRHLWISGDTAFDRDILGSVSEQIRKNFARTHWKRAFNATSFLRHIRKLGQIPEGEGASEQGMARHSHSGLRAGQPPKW
UniProt P42681, sequence (whole entry, looked up): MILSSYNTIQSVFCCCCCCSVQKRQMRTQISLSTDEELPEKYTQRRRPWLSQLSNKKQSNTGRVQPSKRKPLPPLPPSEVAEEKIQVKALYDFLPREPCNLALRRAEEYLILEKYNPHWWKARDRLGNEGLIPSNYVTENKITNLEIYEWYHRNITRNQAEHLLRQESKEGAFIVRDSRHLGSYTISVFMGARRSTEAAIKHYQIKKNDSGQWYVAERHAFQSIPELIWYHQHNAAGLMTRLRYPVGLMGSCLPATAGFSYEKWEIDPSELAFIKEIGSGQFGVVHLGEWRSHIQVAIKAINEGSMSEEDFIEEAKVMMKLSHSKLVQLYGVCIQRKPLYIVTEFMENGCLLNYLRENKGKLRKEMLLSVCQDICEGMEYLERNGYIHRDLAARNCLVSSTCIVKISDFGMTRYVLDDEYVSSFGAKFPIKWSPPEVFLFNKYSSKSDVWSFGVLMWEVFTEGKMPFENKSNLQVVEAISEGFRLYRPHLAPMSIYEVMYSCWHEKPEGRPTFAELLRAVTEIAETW
UniProt O75676, sequence (whole entry, looked up): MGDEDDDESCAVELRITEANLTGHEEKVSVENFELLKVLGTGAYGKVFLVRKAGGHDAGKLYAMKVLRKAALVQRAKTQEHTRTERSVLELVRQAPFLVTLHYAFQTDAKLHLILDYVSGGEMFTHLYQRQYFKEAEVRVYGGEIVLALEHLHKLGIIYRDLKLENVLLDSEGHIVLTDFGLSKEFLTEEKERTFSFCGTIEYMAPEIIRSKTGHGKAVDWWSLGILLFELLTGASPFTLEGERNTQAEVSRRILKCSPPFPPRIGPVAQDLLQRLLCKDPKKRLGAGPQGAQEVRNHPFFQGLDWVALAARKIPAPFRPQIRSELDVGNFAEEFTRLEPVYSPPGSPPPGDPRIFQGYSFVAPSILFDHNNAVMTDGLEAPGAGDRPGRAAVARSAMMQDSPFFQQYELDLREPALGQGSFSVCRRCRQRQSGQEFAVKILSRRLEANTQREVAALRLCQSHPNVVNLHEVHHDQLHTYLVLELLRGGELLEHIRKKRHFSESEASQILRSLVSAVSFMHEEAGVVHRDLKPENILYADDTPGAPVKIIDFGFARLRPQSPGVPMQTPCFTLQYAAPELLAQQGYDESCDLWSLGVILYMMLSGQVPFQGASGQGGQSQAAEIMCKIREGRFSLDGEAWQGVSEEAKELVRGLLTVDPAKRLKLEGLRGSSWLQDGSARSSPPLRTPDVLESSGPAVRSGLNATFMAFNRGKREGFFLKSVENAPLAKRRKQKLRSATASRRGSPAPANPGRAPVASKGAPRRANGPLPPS
UniProt Q96D53, sequence (whole entry, looked up): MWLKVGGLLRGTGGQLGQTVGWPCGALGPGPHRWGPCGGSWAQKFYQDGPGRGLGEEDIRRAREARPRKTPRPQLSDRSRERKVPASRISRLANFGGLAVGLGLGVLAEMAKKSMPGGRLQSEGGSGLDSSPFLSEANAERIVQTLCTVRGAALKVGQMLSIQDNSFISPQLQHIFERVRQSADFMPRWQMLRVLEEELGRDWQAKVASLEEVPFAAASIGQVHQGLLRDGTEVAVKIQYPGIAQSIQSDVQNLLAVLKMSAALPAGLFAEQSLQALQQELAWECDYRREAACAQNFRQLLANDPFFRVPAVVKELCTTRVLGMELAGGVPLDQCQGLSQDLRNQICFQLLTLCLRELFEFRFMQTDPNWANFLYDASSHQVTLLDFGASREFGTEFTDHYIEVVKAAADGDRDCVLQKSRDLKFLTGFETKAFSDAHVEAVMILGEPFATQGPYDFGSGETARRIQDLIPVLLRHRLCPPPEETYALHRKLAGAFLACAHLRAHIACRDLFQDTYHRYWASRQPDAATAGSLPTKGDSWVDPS

Series 1 — read-out: cell-free assay; technique: competition with immobilised ligand; concentration: 0.1 µM; endpoint: remaining binding
Compound: Nc1c(C(=O)NCc2ccc(C(=O)NCCCC3CCCCC3)cc2)cnn1-c1ccccc1
target = LATS1 (Homo sapiens, UniProt O95835); value = 100%
target = Cyclin-dependent kinase 4, with cyclin D1 (CDK4, Homo sapiens, UniProt P11802); value = 100%
target = PAK2 (Homo sapiens, UniProt Q13177); value = 66%
target = KDR (Homo sapiens, UniProt P35968); value = 100%
target = NEK11 (Homo sapiens, UniProt Q8NG66); value = 94%

Series 2 — cell line: mouse MPNST tumor cells; technique: high-content nuclear imaging; item: cell number; concentration: 10 µM; time: 12 h; notes: mean of 2 replicates; relative to: plate mean; reading: higher = more cells; endpoint: nuclei count
SMILES = Cc1ccccc1C(=O)N1CCc2cc(-c3nc(NC(=O)Cc4ccc5c(c4)OCO5)sc3C)ccc21; value = 2.98 z-score
SMILES = O=[N+]([O-])c1cc(Cl)ccc1S(=O)(=O)c1ccccc1; value = -1.88 z-score
SMILES = CN1CCN(C(c2ccccc2)c2ccccc2)CC1; value = 1.75 z-score
SMILES = CCC(C)(CN(C)C)OC(=O)c1ccccc1 (stereo not shown); value = 0.169 z-score
SMILES = Clc1cccc(-c2nnnn2Cc2cccnc2)c1Cl; value = 1.51 z-score
SMILES = CC(C)C[C@H](NC(=O)N1CCCCCC1)C(=O)N[C@H](Cc1cn(C)c2ccccc12)C(=O)N[C@H](Cc1ccccn1)C(=O)O; value = 0.558 z-score

Series 3 — read-out: enzyme activity; action: inhibitor; concentration: 0.5 µM; relative to: control; endpoint: remaining activity
Compound: Cc1ccc(NC(=O)c2ccc(CN3CCN(C)CC3)cc2)cc1Nc1nccc(-c2cccnc2)n1
target = TLK2 (Homo sapiens, UniProt Q86UE8); value = 78.4%
target = PNCK (Homo sapiens, UniProt Q6P2M8); value = 101%
target = KDR (Homo sapiens, UniProt P35968); value = 94.2%
target = MET (Homo sapiens, UniProt P08581); value = 110%
target = TXK (Homo sapiens, UniProt P42681); value = 108%
target = ROCK1 (Homo sapiens, UniProt Q13464); value = 100%
target = MAPK11 (Homo sapiens, UniProt Q15759); value = 98%
target = AKT2 (Homo sapiens, UniProt P31751); value = 112%
target = PAK3 (Homo sapiens, UniProt O75914); value = 106%
target = Myosin-IIIb (MYO3B, Homo sapiens, UniProt Q8WXR4); value = 85.7%
target = PLK3 (Homo sapiens, UniProt Q9H4B4); value = 100%
target = RPS6KA4 (Homo sapiens, UniProt O75676); value = 103%
target = MINK1 (Homo sapiens, UniProt Q8N4C8); value = 98.5%

Series 4 — technique: competitive binding panel; concentration: 1 µM; relative to: vehicle; endpoint: remaining binding
Structure (SMILES): COc1ccc2[nH]c3c4[nH]c5ccc(OC)cc5c4c4c(c3c2c1)C(=O)NC4=O
target = WNK3 (Homo sapiens, UniProt Q9BYP7); value = 92%
target = LATS1 (Homo sapiens, UniProt O95835); value = 100%
target = PIK3CA (Homo sapiens, UniProt P42336); value = 91%
target = COQ8B (Homo sapiens, UniProt Q96D53); item = ADCK4; value = 75%

Some of these lines once more (series 3):
target = ROCK1 (Homo sapiens, UniProt Q13464); value = 100%
target = MAPK11 (Homo sapiens, UniProt Q15759); value = 98%
target = AKT2 (Homo sapiens, UniProt P31751); value = 112%
target = PAK3 (Homo sapiens, UniProt O75914); value = 106%
